Measurements from different studies.
Each numbered part is a random draw from the data of one study; scales do not carry over between parts. Substitutions count along the parent as printed.

Sample 1 — technique: RNA Bind-n-Seq; form: RNA; sample: in vitro; concentration: 100 nM; baseline: input RNA pool; direction: higher = stronger binding
Target: RING finger protein unkempt homolog, zinc fingers 1-6, SBP tag (UNK, Homo sapiens, UniProt Q9C0B0, residues 30-357)
Sequence of UniProt Q9C0B0 (30-357, looked up): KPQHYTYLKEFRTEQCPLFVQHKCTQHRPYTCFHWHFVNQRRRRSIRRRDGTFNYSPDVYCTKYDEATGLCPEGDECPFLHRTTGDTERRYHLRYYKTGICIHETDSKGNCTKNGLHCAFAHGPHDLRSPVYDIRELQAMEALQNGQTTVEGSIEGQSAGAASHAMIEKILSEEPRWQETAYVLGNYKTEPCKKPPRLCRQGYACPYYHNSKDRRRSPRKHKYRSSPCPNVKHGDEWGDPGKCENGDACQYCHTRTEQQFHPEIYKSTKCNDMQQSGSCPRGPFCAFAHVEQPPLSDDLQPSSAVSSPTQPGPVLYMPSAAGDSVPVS
Notes: RNA with constant flanks, vertebrate orthologous sites, ends assumed
Shared flanks, not repeated: GGGAGUUCUACAGUCCGACGAUC … CAACAGAGGAUUGAGCAUCA
Sequence | bound/input enrichment
AGAGCUCACAAACUGAAAGGAAGACUAUUAAAGAGUUUCUAAUAUUAACUAUUAGAAAGCUAGGAAAGAUUAGGACAAUUUUACAAAUGAGCAAUUAAAAAGAAAAGGAUCUGGGAACUA | 0.447 ratio
CACAUCCGGUGAUAUUUGGCCUGGCCUUUCAGCUUAUGAUAAUAGUCCUAGAUCACCCCAUAGUCCUUCACCUAUUGCUACACCACCUAGUCAGAGUUCAUCUUGCUCUGAUGCUCCCAU | 1.3 ratio
GUGACUUUGGAAGUCCGCAGUGUCUCAUUGCAGAUAAUUUUUAGCUUAGGGCCUGGUGACUAGGUAGGUUCUGUCCUUUCCAAUCGGAGACCUCUGCCGCAAACAUGCUCCGCCAGAUCA | 0.543 ratio
GCAAUGAAAAAGCAGCCCUUCUCCCAGUCCCCUUUUCACUAGGAGAUACAAACAUUACCAUAGAAGAGCAAUUAAAUUCAAUAAAUUUAUCUUUUCAGGAUGAUCCAGACUCCAGUACCA | 1.11 ratio
AUAUUGUAUGUAGAGAAAAUUUUUCAUUGACUCCAUUGUGAAAUUCCCUAGCAACUUAUUUAGAAUCUUAAUUUUUCUAAUUCAAGCUAACUGUUAGUCAUUUUUAGCCCAAAAUUAAAA | 2 ratio
CUGUUGUUAAGCACUGUGUUCCAGACCGUGUCUGACUUUAGUGUAACCUAGGAGAUUUUAUAGUUUAUUUUAAUGAAAUCCUGCUUGACGCAGAACAGCGGGGAGAGCAGUGUCUUCUAC | 1.85 ratio
GCAUGCACAUGCCACUGUCACCGAAAGCGAACCAUCACGUCUCAGAUUUCCGAGCUGUUGUAGUGUUUCCCAGUCCCUACCCUUCCCAUGACUUUGAGAGAUGAACUGUCCUGAGUUGUU | 0.525 ratio
ACCAUGUACCCUGCUGUAUAAUAGACAACCAAGACACUUGUCAACUAUUGAUACAGGUGUUAGUCCCAAACCACUUUUUAUAUGUUUUAAAUUUUGAAAUUCAAGUGUAUCUGCCAUAAC | 1.76 ratio
UGGGUUAUUCCUAUUAUUAUCAAGUAGCUGGAAUUGUGAAGGUCGGAGUAGUUAGAUCUUUAGCUUUUAUUCCUUAUUUUUUUGUAUUACUAUCCAUGUGUAUAAAUUAUUGAUCAUGUU | 1.97 ratio
UGGGUUACUCCUCUUAUUAUCAAGUAGCUGGAAUUGUGAAGGUCGGAGUAGUUAGAUCUUUAGCUUUUAUUCCUUAUUUUUUGUAUUACUAUCCAUGUGUAUAAAUUAUUGAUCAUGUUG | 2.87 ratio
CUUUUAAUCGACUAUGUCUGUAAAUGUAUAUUGAGAGAAUUGAAGUAUUUAUAAACAGAGUGAUUUAUUUAAGGAAAAGCUUAUCCCUCUUUCAUAUGGUGGUCUGUGUUAAUUCCAUUU | 0.623 ratio

Sample 2 — technique: competition protein-binding microarray; form: double-stranded DNA, one strand shown; sample: in vitro; concentration: 2 µM; together with: Pho4 competitor, 0.05 µM; direction: higher = stronger binding; shared flanks, not repeated: … GTCTTGATTCGCTTGACGCTGCTG
Target: Centromere-binding protein 1, full length, His-tagged (CBF1, Saccharomyces cerevisiae, UniProt P17106, residues 1-351)
Sequence of UniProt P17106 (whole entry, looked up): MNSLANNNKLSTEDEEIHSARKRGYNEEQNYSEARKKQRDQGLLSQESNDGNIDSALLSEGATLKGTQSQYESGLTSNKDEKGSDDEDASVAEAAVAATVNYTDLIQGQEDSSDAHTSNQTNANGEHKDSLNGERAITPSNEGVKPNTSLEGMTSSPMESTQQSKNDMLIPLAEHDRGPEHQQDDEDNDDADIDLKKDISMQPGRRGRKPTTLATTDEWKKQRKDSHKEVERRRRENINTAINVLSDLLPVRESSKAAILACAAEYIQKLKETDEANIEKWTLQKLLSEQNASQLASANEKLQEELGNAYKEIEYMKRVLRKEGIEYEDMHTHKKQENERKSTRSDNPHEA
Notes: whole 60-bp probe, lowest competitor level
Sequence | fluorescence intensity
CGGGGTTAAGTTTGTCACTTCACTTGCTTGCAGCAG | 76.1 a.u.
TATGACCGTCCGACCACCGTGACTCGTAACAAAGTC | 150 a.u.
AAAGCGGTAATTTTTCACGTGTGTTCACATATCTAT | 791 a.u.
CGAATTACTTGACGTATCGTGCCGATCCGTTGATGC | 69.2 a.u.
AAAGCGGTAATTTGTCCAGTGGGTGCAGATATCTAT | 70.6 a.u.
TGCGCAACAACTTGCAGAGTGGGTGTATGTCTAGAA | 57.3 a.u.
AATCTACGGTTCCAACACGCACACTTTCATCCTAGA | 74.4 a.u.
CTTTCCCGATCTTTTCACGTGCGCTTAGCACATTTG | 963 a.u.
TCACTCTGCCTTCATCACATGCTTTTTTCTATGGTT | 399 a.u.
GTCTTGTCTCATTGTCACATAACTTTCCCCACTTCA | 108 a.u.
TCTCTTTATTAATTACACGTGGTGATGACTCATTGG | 1270 a.u.
GATCCGTCTACGACTCCCGTGGTGAGCCAACCGTCG | 64.6 a.u.
TTCTGTAGGTTATACCATGTGCTAAATGTAGTGGTC | 181 a.u.
GGGCTGTAGCTTGGCGACGTGGGACAGTAGGAAGGC | 67.8 a.u.
TGATTATACTTTACCCACGCACATCAAACGCATACC | 85.7 a.u.
TTATTTATAAAAGGACACGGGAGGGGGAATCCCGTC | 117 a.u.

Sample 3 — technique: DHFR PCA, deep sequencing; sample: yeast; together with: (+)-ABA 200 µM; baseline: wild-type fitted maximum; direction: higher = stronger binding
Target: ABI1, truncated, D143A, DHFR fusion (Arabidopsis thaliana)
Notes: methotrexate growth selection, single substitutions
Starting sequence: PYL1, truncated, DHFR fusion (Arabidopsis thaliana); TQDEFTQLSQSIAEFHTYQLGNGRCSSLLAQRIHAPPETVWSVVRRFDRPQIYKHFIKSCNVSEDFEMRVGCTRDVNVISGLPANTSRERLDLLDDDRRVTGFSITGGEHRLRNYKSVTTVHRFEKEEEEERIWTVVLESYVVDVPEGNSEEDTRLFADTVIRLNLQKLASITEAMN; partner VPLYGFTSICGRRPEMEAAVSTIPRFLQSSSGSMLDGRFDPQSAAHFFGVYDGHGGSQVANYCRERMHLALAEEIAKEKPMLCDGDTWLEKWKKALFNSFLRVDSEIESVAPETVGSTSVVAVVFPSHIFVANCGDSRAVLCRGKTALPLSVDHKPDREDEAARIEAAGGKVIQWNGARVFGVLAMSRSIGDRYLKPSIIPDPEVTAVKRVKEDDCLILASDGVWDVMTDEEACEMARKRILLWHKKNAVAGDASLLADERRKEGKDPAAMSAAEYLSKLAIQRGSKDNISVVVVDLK
Variant | relative binding score
A158I | 99.6%
L29P | -11.1%
V161P | -8.01%
K126L | 105%
N61H | 95.5%
T39I | 102%
R113H | 107%
I133G | 116%
L164I | 94.9%
R98N | 122%
V118R | 105%
F66V | 97.2%
L164W | 92.2%
R45A | 66%

Sample 4 — target: CCND1, cyclin fold, Cln2 fusion (human); technique: yeast growth competition, sequencing; sample: yeast; notes: weak parent motif; baseline: not given; direction: higher = stronger binding
Starting sequence: NPAT docking peptide (human); PCHRRVLCFDSTT; partner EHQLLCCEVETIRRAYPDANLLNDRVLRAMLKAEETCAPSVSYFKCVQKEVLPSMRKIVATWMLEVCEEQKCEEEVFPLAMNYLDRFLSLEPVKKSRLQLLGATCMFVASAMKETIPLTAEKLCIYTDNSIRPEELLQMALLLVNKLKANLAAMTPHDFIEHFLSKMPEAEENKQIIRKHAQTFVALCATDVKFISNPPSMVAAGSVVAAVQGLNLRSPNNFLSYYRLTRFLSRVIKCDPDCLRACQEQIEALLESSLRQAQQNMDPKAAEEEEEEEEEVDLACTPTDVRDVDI
Variant | normalised enrichment score
PCHRRVLCFDATT [S11A] | -0.473
ACHRRVLCFDSTT [P1A] | -0.159
PCARRVLCFDSTT [H3A] | 0.808
PCHRRVLCFDSTA [T13A] | -0.574
PCHRKVLCFDSTT [R5K] | 0.206
PCHRAVLCFDSTT [R5A] | -0.0305
PCHRRVLAFDSTT [C8A] | -0.134

Sample 5 — technique: universal PBM; form: double-stranded DNA, one strand shown; sample: in vitro; concentration: 600 nM; direction: higher = stronger binding
Target: Sal-like protein 4, full length isoform A (SALL4, Homo sapiens, UniProt Q9UJQ4, residues 1-1053)
Sequence of UniProt Q9UJQ4 (whole entry, looked up): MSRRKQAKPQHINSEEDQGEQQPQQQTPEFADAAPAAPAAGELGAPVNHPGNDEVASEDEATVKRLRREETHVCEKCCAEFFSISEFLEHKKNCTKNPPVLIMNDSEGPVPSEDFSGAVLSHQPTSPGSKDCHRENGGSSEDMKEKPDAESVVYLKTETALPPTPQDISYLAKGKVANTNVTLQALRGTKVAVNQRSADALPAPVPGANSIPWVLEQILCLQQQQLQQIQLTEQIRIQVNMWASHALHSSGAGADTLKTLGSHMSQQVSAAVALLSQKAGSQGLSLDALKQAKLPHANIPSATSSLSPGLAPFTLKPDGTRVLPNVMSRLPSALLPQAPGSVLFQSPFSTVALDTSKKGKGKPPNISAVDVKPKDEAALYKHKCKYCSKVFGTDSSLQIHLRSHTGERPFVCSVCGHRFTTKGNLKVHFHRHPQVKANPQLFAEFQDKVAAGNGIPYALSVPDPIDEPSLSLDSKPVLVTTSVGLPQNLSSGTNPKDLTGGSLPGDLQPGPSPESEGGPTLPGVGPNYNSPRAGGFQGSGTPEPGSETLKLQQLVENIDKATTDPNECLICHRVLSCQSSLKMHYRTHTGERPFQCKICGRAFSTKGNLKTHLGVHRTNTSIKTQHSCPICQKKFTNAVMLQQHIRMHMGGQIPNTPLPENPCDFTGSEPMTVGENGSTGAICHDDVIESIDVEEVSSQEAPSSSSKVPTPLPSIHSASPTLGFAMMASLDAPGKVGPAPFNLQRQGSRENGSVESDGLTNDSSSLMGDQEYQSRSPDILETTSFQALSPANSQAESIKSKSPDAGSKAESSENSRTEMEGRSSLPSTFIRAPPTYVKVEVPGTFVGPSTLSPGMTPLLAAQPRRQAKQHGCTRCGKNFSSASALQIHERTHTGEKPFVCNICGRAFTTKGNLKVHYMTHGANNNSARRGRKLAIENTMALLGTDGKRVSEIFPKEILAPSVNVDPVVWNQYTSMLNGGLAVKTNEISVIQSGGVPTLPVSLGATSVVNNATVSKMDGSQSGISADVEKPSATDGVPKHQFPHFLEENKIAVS
Notes: 8-mer, flanks averaged, mean of replicates
Sequence | E-score
CACATGGA | -0.0525
CTCCTCAG | -0.169
CCGGCTGA | -0.336
ACTTATGC | 0.191
CCTGACCA | 0.0675
CCACGACA | -0.156
AGGGCTAA | -0.0238
GCAATACC | 0.0524
TAGAAAGA | -0.00658
AATGACCG | -0.116
AAGTACGC | -0.0159
AAATGACG | 0.133
ATACTGTA | 0.189
ACTGGTCG | -0.257
ACGAGAGC | -0.106
TACTTCAA | 0.195
GTAGTAAA | 0.295

Sample 6 — technique: RNA Bind-n-Seq; form: RNA; sample: in vitro; concentration: 1 µM; notes: whole 134-nt RNA, ends assumed; together with: 150 mM KCl; baseline: input library; direction: higher = stronger binding
Target: Ras GTPase-activating protein-binding protein 1, RRM domain (G3BP1, Homo sapiens, UniProt Q13283)
Sequence of UniProt Q13283 (whole entry, looked up): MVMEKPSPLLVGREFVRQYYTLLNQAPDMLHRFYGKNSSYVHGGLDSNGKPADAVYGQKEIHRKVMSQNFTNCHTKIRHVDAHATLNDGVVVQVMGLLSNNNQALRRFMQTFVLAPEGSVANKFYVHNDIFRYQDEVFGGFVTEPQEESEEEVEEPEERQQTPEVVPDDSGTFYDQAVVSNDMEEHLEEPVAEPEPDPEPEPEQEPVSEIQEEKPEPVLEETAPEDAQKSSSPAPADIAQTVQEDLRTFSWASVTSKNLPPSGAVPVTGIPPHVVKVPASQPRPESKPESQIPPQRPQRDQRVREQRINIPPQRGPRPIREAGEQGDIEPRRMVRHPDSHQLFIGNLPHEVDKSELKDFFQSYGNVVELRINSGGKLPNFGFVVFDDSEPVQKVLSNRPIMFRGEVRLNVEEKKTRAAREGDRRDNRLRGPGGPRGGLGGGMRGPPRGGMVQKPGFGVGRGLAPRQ
Shared flanks, not repeated: GGGAGUUCUACAGUCCGACGAUC … UGGAAUUCUCGGGUGUCAAGG
Sequence | log2 enrichment
CUCAAGUCCUGUGCUACACAUCGUAUGUACCGAAUCGGUGGAGGAAAAAAAGGAAAGUAUUAUGUUACGCCGUUCGGAUCUGCACUUCCA | -0.218
UCCUGUGCUACACAUCGUAUGUACCGAAUCGGGGAAAAAGGGAAAAAGGGGAAAAAGGGAAAGUAUUAUGUUACGCCGUUCGGAUCUGCA | -0.0505
UCCUGUGCUACACAUCGUAUGUACCGAAUCGGAAAAAAGGGGAAAAAAGGAAAAAAGGGGAAAGUAUUAUGUUACGCCGUUCGGAUCUGC | -0.023
UCCUCAAGUCCUGUGCUACACAUCGUAUGUACCGAAUCGGGUGGGUGGGUGGAAAGUAUUAUGUUACGCCGUUCGGAUCUGCACUUCCAG | 0.486
CAAGUCCUGUGCUACACAUCGUAUGUACCGAAUCGGGAGGGUUUUUGGGUUUGGGAAAGUAUUAUGUUACGCCGUUCGGAUCUGCACUUC | 0.539
UAUGCCACGCCCUUUGAGGACUCGAAGAUCAUGGUCUCUGACUUUGGACUCUCCAAAAUCCAGGCUGGGAACAUGCUAGGCACCGCCUGU | -0.0469
UCCUGUGCUACACAUCGUAUGUACCGAAUCGGGGAGGGGAAAAAGGGGUUUUUUUGGGGAAAGUAUUAUGUUACGCCGUUCGGAUCUGCA | 0.774

Repeated from above (sample 5):
Sequence | E-score
CCGGCTGA | -0.336
ACTTATGC | 0.191
CCTGACCA | 0.0675
CCACGACA | -0.156
AGGGCTAA | -0.0238
GCAATACC | 0.0524
TAGAAAGA | -0.00658
AATGACCG | -0.116
AAGTACGC | -0.0159
AAATGACG | 0.133
ATACTGTA | 0.189
ACTGGTCG | -0.257
